# Measured values pooled from the literature.
# Each numbered part is a random draw from the data of one study; scales do not carry over between parts. Positions count from the first letter of the parent shown.

# Block 1
# Target: CCNA1, cyclin fold, Cln2 fusion (human)
# Method: yeast growth competition, sequencing
# Sample: yeast
# Setting: weak parent motif
# Relative to: not given
# Direction: higher = stronger binding
# Starting sequence: NPAT docking peptide (human); PCHRRVLCFDSTT
Variant,normalised enrichment score
PCHARVLCFDSTT [R4A],0.223
PCHRRVLCFDSAT [T12A],0.376
PCHRKVLCFDSTT [R5K],0.268
PCHRRVLCFDSTA [T13A],-0.0224
PCHRRVLCADSTT [F9A],0.0674
PCARRVLCFDSTT [H3A],0.342
PCHRRVLCFASTT [D10A],0.269

# Block 2
# Target: Prothrombin, mature alpha-thrombin (F2, Homo sapiens, UniProt P00734)
# Method: aptamer microarray, sandwich
# Form: DNA with 2'F-ANA
# Sample: in vitro
# Tested at: 200 nM
# Setting: whole 15-mer aptamer, many near background
# Added: Cy3 exosite-II aptamer, 400 nM
# Direction: higher = stronger binding
# Strand: GGTTGGTGTGGTTGG
Modification,mean fluorescence intensity
2'F-ANA at 1 2 3 4 5 10 12 15,62.9 a.u.
2'F-ANA at 2 4 6 7 8 12,586 a.u.
2'F-ANA at 2 3 5 7 10 11 12 13,65.2 a.u.
2'F-ANA at 6 7 8 9 13 14,157 a.u.
2'F-ANA at 2 5 7 8 9 10 13 15,59 a.u.
2'F-ANA at 5 6 7 8,83.8 a.u.
2'F-ANA at 1 3 6 8 10 12 14,62.8 a.u.
2'F-ANA at 5 7 8 9 11 13 15,72.6 a.u.
2'F-ANA at 4 5 6 10 11 15,44.8 a.u.
2'F-ANA at 1 4 7 9 11 13 15,83.9 a.u.
2'F-ANA at 3 4 7 8 9 10,331 a.u.
2'F-ANA at 5 6 8 9 13 14,48.2 a.u.

# Block 3
# Target: Fragile X messenger ribonucleoprotein 1, C-terminal low-complexity region (Fmr1, Mus musculus, UniProt P35922)
# Method: RNA Bind-n-Seq
# Form: RNA
# Sample: in vitro
# Tested at: 200 nM
# Setting: whole 134-nt RNA, ends assumed
# Added: 150 mM LiCl
# Relative to: input library
# Direction: higher = stronger binding
# Each molecule: 7-deaza-guanosine replaces G
# Constant ends, left off below: GGGAGUUCUACAGUCCGACGAUC … UGGAAUUCUCGGGUGUCAAGG
Strand,log2 enrichment
UCCUGUGCUACACAUCGUAUGUACCGAAUCAAAUUUUUAAACCCCCCCAAAUUUUUAAAAAAGUAUUAUGUUACGCCGUUCGGAUCUGCA,1.9
ACCAUGCAGGUGGCCAUCUUUGGGAAGUGGGGCAAGGGGGGGAUAGGGAGGGGGGUAACACUUUGGGAACAGGUGGUCCCAGGUCGUUUC,1.6
GAGGAGCUGCUGCUGGAGCCCGAGCCGGAGCCCGAGCCCGAAGAGGAGCCGCCCCGGCCCCGCGCCCCCCCGGGAGCUCCGGGCCCUGGG,-1.25
GCAGGAAGUAAAAACAAAUGGAAAUGCUUCGGAUAGUGGCAGGGGUGGGGGUUGCUAAGGAAAGGGUCGGAUGGGAGUGGGUAAAGAGUU,1.22
CUCAAGUCCUGUGCUACACAUCGUAUGUACCGAAUCGGGGCCGGCCGGGCCGGGAAAGUAUUAUGUUACGCCGUUCGGAUCUGCACUUCC,0.609
GCUGGAAGUAAAAACAAAUGGAAAUGCUUCGGAUAGUGGCAGGGGUGGGGGUUGCUAAGGAAAGGGUGGGAUGGGAGUGGGUAAAGAGUU,1.5
CAAGUCCUGUGCUACACAUCGUAUGUACCGAAUCGGGGUGGGGAGGGGAAAGGGGAAAGUAUUAUGUUACGCCGUUCGGAUCUGCACUUC,-0.211
CAAGUCCUGUGCUACACAUCGUAUGUACCGAAUCGGGGUGGGGAAAGGGGUGGGGAAAGUAUUAUGUUACGCCGUUCGGAUCUGCACUUC,-0.456
GCAGGAAGUAAAAACAAAAAAAAAUGCUUCGGAUAGUGGCAGGGGUGGGGGUUGCUAAGGAAAGGGUGGGAUGGGAGUGGGUAAAGAGUU,1.28
UCAAGUCCUGUGCUACACAUCGUAUGUACCGAAUCGGCCGGGCCGGGGCCGGGGAAAGUAUUAUGUUACGCCGUUCGGAUCUGCACUUCC,-0.215
UCUUUAUUUGAGCCAGUCUUGCAAGGUUAACUUCUCACUGGGCCUAGUGUGGUGCCCAGGUUUUUGCCUUGCUUCACUUCUGUCUCUACA,-1.38

# Further values, each from its own experiment
Substance,target,test,system,setting,how to read,endpoint,result
"PhoQ, residues 284 288 289 292 302 303 SSLVEF","PhoP, residues 12 14 15 18 19 GHCSL (Escherichia coli, UniProt P23836)","Sort-seq, refers to: YFP reporter",E. coli,"PhoQ-PhoP variant library, added: 10 µM Mg2+","relative to: high Mg2+ state, higher = stronger signaling",fold induction,13.1

# For quick reference, copied from above (block 2):
Modification,mean fluorescence intensity
2'F-ANA at 3 4 7 8 9 10,331 a.u.
2'F-ANA at 5 6 8 9 13 14,48.2 a.u.
